Experimental data gathered from unrelated publications.
A part holds a random share of what one study measured.

Set 1 — method: protein binding microarray; molecule type: double-stranded DNA, one strand shown; sample: in vitro; concentration: not given; relative to: not given; reading: higher = stronger binding; endpoint: E-score
Target: Histone acetyltransferase KAT6A, winged helix 1, GST fusion (KAT6A, Homo sapiens, UniProt Q92794, residues 1-85)
Notes: 8-mer, flanks averaged, mean of 2 arrays, mostly near background
Target sequence (chain): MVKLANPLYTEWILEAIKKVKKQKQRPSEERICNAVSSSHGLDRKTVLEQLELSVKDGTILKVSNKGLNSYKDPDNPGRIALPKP
AGTAACAT: 0.0677
CATTCAGG: -0.124
ACGGACGT: 0.171
ACCCGGAT: 0.0628
AAATTGGC: -0.0867
AGAAACGA: -0.21
GCGAATTA: 0.145
AGTGAGAA: -0.156
CAACACTC: -0.0498
ATCACGTC: -0.0554
GCCCGCCC: 0.424
ACATGTAG: -0.188
AGTCGTCA: -0.21

Set 2 — method: protein-binding microarray; molecule type: double-stranded DNA, one strand shown; sample: in vitro; concentration: 2540 nM top; notes: 60-bp whole probe; added: salmon DNA 0.4 mg/ml; relative to: random background probes; reading: higher = stronger binding; endpoint: fitted relative affinity; all sequences stand within: GCCTAGCAC … GTCTTGATTCGCTTGACGCTGCTG
Target: Interferon regulatory factor 3, full length, phosphomimetic (IRF3, Homo sapiens, UniProt Q14653, residues 1-427, S386D/S396D/S398D/S402D/T404D/S405D)
Sequence of UniProt Q14653 (whole entry, unmodified, looked up): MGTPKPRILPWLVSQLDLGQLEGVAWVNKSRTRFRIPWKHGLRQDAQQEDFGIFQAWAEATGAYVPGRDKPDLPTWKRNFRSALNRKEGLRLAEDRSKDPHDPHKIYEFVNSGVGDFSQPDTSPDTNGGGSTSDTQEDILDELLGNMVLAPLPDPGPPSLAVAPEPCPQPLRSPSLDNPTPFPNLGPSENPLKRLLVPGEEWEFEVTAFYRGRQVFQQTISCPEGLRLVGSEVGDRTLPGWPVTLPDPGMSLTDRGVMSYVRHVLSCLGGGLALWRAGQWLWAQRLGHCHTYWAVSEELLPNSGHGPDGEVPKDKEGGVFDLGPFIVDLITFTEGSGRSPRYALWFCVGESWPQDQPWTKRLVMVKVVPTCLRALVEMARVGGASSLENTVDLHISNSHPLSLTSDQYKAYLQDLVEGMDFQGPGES
GACGGTATCGTCACTGGGGACGTGCTA: 0.271 z-score
GACGGTTTGGACTTTCGGGACGTGCTA: 0.42 z-score
TTAGGTATACTTATCCTTTAGTGCTAG: 0.682 z-score
GACGGTATCCTTTTCCTGCCGTGCTAG: 7.23 z-score
CCTGGCTTCATGTTGCTCTCCGTGCTA: -0.927 z-score
GACGGTATCGACTTTCGGGAAGTGCTA: 1.34 z-score
GACGGTCTCGGAATGGGGACGTGCTAG: 0.796 z-score
GACGGACTAGGGTATCGGGACGTGCTA: -0.255 z-score
TTAGATATGGGGACTGGATTAGTGCTA: -0.627 z-score
GACGGTATCCTTAGCCTGACGTGCTAG: 2.24 z-score
TTAGGACTGGGGTTTAGGTTAGTGCTA: -0.959 z-score
TTGGGACTGGGGTTTCGGTTAGTGCTA: 2.05 z-score
TTAGATTTCGGGTTTCGATGAGTGCTA: 2.69 z-score
GACGATATCGGGACCGGAGACGTGCTA: 0.288 z-score
TAAGGACTGGACTTTCGGTTAGTGCTA: 1.11 z-score
TTAGTTATCGACTATCGGTTAGTGCTA: 0.665 z-score

Set 3 — method: RNA Bind-n-Seq; molecule type: RNA; sample: in vitro; concentration: not given; relative to: input RNA pool; reading: higher = stronger binding; endpoint: bound/input enrichment
Target: RING finger protein unkempt homolog, zinc fingers 1-6, GST-SBP tag (UNK, Homo sapiens, UniProt Q9C0B0, residues 30-357)
Sequence of UniProt Q9C0B0 (30-357, looked up): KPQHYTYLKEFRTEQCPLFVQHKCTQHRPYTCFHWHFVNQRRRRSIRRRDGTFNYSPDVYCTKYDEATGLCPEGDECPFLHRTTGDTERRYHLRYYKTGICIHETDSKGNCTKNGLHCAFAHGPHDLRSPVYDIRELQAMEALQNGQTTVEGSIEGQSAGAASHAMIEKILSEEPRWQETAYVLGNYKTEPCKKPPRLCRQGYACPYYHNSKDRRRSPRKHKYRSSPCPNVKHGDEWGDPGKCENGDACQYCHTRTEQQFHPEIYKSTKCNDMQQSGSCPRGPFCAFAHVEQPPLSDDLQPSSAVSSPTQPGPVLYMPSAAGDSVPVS
Notes: RNA with constant flanks, human-mouse chimeric sites, ends assumed
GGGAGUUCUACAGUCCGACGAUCUCAGUCUUUUUGUACAGCUUUGUAAAUUCUUAACAUUUUUAUAUUGCCAUGUUUAUUUUGUUUGGGUAAUUUGGUUCAUUAAGUACAUAGCUAAGGUAAUGAACAUCGUAAUUAUAGAUUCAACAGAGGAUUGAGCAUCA: 2.22 ratio
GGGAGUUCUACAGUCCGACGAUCAAAGUGGACUAUGGCGAAUACAUGGAUAAAAACAAUGUGAGGCGGCAAGCAACAACAAUCAUAGCUGAUAAUAUUAUAUUUCUGAGUGACCAGACAAAAGAAAAGGCAUAGAACGGAUGACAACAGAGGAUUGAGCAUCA: 5.39 ratio
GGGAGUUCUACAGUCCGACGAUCCGGAGCCCUCCUCUCCCACAGGCCCAAGAUAUAACCCACCAGUGCCUUUUGUCUUCCUGUCAGCUCUGUCAAUCACGCCUGUCCUCUGUCCCUCUCACUCCCCAGCCAAAGUGGGGAGGGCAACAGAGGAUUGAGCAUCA: 0.619 ratio
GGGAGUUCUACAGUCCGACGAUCUUUGUAUUUAUGCUAAGCACACGUGCUGGUGGUCUGGGCAUCAAUCUUGCAACUGCUGAUGUAGUCAUUUUAUAUGAUUCUGAUUGGAAUCCGCAAGUAGAUCUUCAGGCUAUGGACCGUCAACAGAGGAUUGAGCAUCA: 0.252 ratio
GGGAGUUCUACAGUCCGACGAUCUGACAAGGGCACUGCAGAGCCAUGCCUUUCCUUGACAUACAGAAAAAGCUGGGCAUCAACAUAGAUCGGCACUUUAUGUUCCUAAGCGGUGAACAGCCCUAUAAGAACGCCGCUCGGUGCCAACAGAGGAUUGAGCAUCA: 0.117 ratio
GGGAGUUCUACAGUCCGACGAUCCUGGCCUGGCCCUCCCCAGGGGCCUCCUUUCGUAUAGUCACUGCUUCUGCAUCAGAUACUUUCAGCUGCAACUCCCUGCAGGGUGGGGCACCCAUUUCAGGCAGAAGUUGGUGCCCCCCUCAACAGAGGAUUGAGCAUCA: 0.162 ratio
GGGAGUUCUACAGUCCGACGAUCUGUGCAUAUGAUGCUUGAGAUGGUUUUUGCAAAAGCAGAAAUCGCUGCAAGGUCAUUACAAUAGAUACAAGCGGUAUUUUAAACCUUUGAAAUAAAUGGAUGUAACUGUACCUUGGUACACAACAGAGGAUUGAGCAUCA: 0.205 ratio
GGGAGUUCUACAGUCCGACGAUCAAUAGAGGAUCCACCUCCCAAAGUGCUGGGAGUAAAGGUGUGGCCACCACACCUAACUUGAUGGAUAUUUUAUAAAGUUAAUAUGAAUCUUCCUGUUCGUCCAGGGAAGAAAGAUUUGUUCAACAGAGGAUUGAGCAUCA: 0.648 ratio

Other studies, line by line
PhoQ, residues 284 288 289 292 302 303 ALAMYF
fold induction (PhoP, residues 12 14 15 18 19 TQCLL (Escherichia coli, UniProt P23836); Sort-seq, measured: YFP reporter; E. coli; PhoQ-PhoP variant library, added: 10 µM Mg2+; relative to: high Mg2+ state, higher = stronger signaling): 2.44

A few entries again (set 1):
ACGGACGT: 0.171
ACCCGGAT: 0.0628
AAATTGGC: -0.0867
AGAAACGA: -0.21
GCGAATTA: 0.145
